Assay results collected from several papers.
Every numbered part comes from another study and shows a few of its results, in no order. Changes are numbered by the printed parent chain.

Block 1
Target: Histone acetyltransferase KAT6A, winged helix 2, GST fusion (KAT6A, Homo sapiens, UniProt Q92794, residues 85-181)
Method: protein binding microarray
Molecule type: double-stranded DNA, one strand shown
Medium: in vitro
Concentration: not given
Setting: 8-mer, flanks averaged, mean of 2 arrays, mostly near background
Reference: not given
Direction: higher = stronger binding
Target sequence (chain): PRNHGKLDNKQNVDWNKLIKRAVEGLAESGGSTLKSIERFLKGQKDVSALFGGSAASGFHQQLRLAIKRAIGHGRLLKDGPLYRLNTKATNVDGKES
For `GAAGCGTC`, the E-score was -0.0153.
`TCCTCGAA` has an E-score of -0.14.
The E-score of `CTCACAAA` is reported as 0.0725.
`TCCCGGAA` has an E-score of 0.181.
The E-score of `AATTCGCC` is reported as 0.229.
For `ACAACTAC`, the E-score was -0.257.
With `CCGGGGAA` the E-score was 0.125.
`CGTACACG` has an E-score of -0.0206.
`AAGAGATC` gave an E-score of -0.205.
`GCGATACA` has an E-score of 0.0992.
With `ATCTGCAG` the E-score was 0.0343.
`GTCATCGA` gave an E-score of 0.0124.
`AGGGTCGC` has an E-score of 0.203.
With `AGTCAACC` the E-score was -0.0994.
With `ACTCCTTA` the E-score was -0.317.
`AAACTACG` has an E-score of -0.0433.
The E-score of `AACCTGGG` is reported as -0.145.
`GTACCAGA` gave an E-score of 0.0191.
`CCGAGTAG` has an E-score of 0.129.
`CGATGCCC` has an E-score of 0.0206.
For `AAGATACG`, the E-score was 0.0772.

Block 2
Target: ABI1, truncated, D143A, DHFR fusion (Arabidopsis thaliana)
Method: DHFR PCA, deep sequencing
Medium: yeast
Setting: methotrexate growth selection, single substitutions
With: (+)-ABA 0.032 µM
Reference: wild-type fitted maximum
Direction: higher = stronger binding
Parent: PYL1, truncated, DHFR fusion (Arabidopsis thaliana); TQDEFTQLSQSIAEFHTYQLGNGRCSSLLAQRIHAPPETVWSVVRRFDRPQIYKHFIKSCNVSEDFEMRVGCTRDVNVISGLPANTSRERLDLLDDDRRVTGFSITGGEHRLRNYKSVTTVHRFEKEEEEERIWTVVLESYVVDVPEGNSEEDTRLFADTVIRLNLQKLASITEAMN; partner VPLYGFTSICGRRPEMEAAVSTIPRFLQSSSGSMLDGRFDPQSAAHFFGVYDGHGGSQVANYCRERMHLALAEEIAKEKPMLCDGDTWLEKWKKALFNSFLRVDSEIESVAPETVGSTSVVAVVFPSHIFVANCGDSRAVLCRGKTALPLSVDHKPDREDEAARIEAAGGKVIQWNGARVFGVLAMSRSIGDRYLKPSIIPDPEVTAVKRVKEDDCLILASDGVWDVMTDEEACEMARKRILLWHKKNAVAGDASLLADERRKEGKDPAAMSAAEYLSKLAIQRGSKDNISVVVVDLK
For `N85E`, “relative binding score” read 37.5%.
`V145S` — result for “relative binding score”: -13.1%.
`T135C`: “relative binding score” 8.23%.
Under “relative binding score”, `E4W` is recorded as 18.7%.
Under “relative binding score”, `G21D` is recorded as 23.7%.
Under “relative binding score”, `T73D` is recorded as 4.41%.
For `I52L`, “relative binding score” read 41.1%.
`T73E`: “relative binding score” 30.8%.
`V44M`: “relative binding score” 3.86%.
Under “relative binding score”, `L156A` is recorded as 8.87%.
Under “relative binding score”, `S11W` is recorded as 15.2%.
`D3T` — result for “relative binding score”: 16.5%.
`V161S`: “relative binding score” 6.99%.
`H16V`: “relative binding score” 3.66%.
`F124Y` — result for “relative binding score”: 15.9%.
For `E151N`, “relative binding score” read 3.23%.
For `S140G`, “relative binding score” read 6.58%.
`E38W`: “relative binding score” 4.78%.

Block 3
Target: Prothrombin, mature alpha-thrombin (F2, Homo sapiens, UniProt P00734)
Method: aptamer microarray, sandwich
Molecule type: DNA with 2'F-ANA
Medium: in vitro
Concentration: 200 nM
Setting: whole 15-mer aptamer, many near background
With: Cy3 exosite-II aptamer, 400 nM
Direction: higher = stronger binding
Sequence: GGTTGGTGTGGTTGG
Under “mean fluorescence intensity”, `2'F-ANA at 1 2 4 6 7 8 10 12 15` is recorded as 62.6 a.u.
For `2'F-ANA at 1 3 5 7 12 15`, “mean fluorescence intensity” read 134 a.u.
Under “mean fluorescence intensity”, `2'F-ANA at 1 5 6 7 10 14 15` is recorded as 54.8 a.u.
`2'F-ANA at 1 2 5 6 9 12 13 14`: “mean fluorescence intensity” 58.3 a.u.
Under “mean fluorescence intensity”, `2'F-ANA at 1 4 5 6 7 9 10 12 13 14 15` is recorded as 48.8 a.u.
For `2'F-ANA at 1 3 4 6 8 10`, “mean fluorescence intensity” read 70.7 a.u.
`2'F-ANA at 5 7 9 10 11 12 13 14 15` — result for “mean fluorescence intensity”: 49.2 a.u.
Under “mean fluorescence intensity”, `2'F-ANA at 2 4 8 10` is recorded as 99 a.u.
`2'F-ANA at 8 10 11 12 13 14 15` — result for “mean fluorescence intensity”: 101 a.u.
`2'F-ANA at 1 3 4 8 9 10 15`: “mean fluorescence intensity” 59.1 a.u.
For `2'F-ANA at 3 4 5 6 10 11 13 15`, “mean fluorescence intensity” read 52.7 a.u.
For `2'F-ANA at 1 3 4 7 8 10 13 15`, “mean fluorescence intensity” read 59.7 a.u.
For `2'F-ANA at 2 3 4 8 9 13 14 15`, “mean fluorescence intensity” read 246 a.u.
`2'F-ANA at 1 5 7 9 11 12 14` — result for “mean fluorescence intensity”: 45.9 a.u.
`2'F-ANA at 4 7 8 10`: “mean fluorescence intensity” 109 a.u.
For `2'F-ANA at 1 2 7 8 9 12 15`, “mean fluorescence intensity” read 499 a.u.
`2'F-ANA at 2 3 4 6 7 8 9 11 15`: “mean fluorescence intensity” 458 a.u.

Block 4
Target: Interferon regulatory factor 5, full length, phosphomimetic (IRF5, Homo sapiens, UniProt Q13568-2, residues 1-514, S451D/S453D/S456D/S462D)
Method: protein-binding microarray
Molecule type: double-stranded DNA, one strand shown
Medium: in vitro
Concentration: 940 nM top
Setting: 60-bp whole probe
With: salmon DNA 0.4 mg/ml
Reference: random background probes
Direction: higher = stronger binding
Constant ends, left off below: GCCTAGCAC … GTCTTGATTCGCTTGACGCTGCTG
`TTAGGTATCGGGAATCGGTTAGTGCTA` — result for “fitted relative affinity”: 3.99 z-score.
`TGGTTTTCCTTATTGCTTCCTGTGCTA`: “fitted relative affinity” 2.17 z-score.
`TCATACTTCTCTTTTTGACTGTGCTAG` — result for “fitted relative affinity”: 1.26 z-score.
For `TTAGGACTGAACTATCGGTTAGTGCTA`, “fitted relative affinity” read -0.226 z-score.
Under “fitted relative affinity”, `TCAATCTTAGATATTAAACTGTGCTAG` is recorded as 0.0867 z-score.
`GGCGATTTCAGTATCGAGACGTGCTAG` — result for “fitted relative affinity”: 3.24 z-score.
Under “fitted relative affinity”, `GACGGGCTCCTACTGCTGACGTGCTAG` is recorded as -0.25 z-score.
For `ATGGAAATCTCAATGGGTTAGTGCTAG`, “fitted relative affinity” read 0.00439 z-score.
Under “fitted relative affinity”, `GACGCTCTCCTTTTCCTGACGTGCTAG` is recorded as 1.01 z-score.
`GACGGACTGGGGACTCGGGACGTGCTA`: “fitted relative affinity” -0.274 z-score.
`TTAAGTTTCGGGACTGGGTTAGTGCTA` — result for “fitted relative affinity”: 7.63 z-score.
`TCACGTCTGATTTTGCTACTGTGCTAG`: “fitted relative affinity” 0.389 z-score.
For `GACGATATCTGGTATCGAGACGTGCTA`, “fitted relative affinity” read 1.92 z-score.
For `TTAGGACTGGGGACTGGGTGAGTGCTA`, “fitted relative affinity” read -0.263 z-score.
`TTAAGTTTCGGACTGGGTTAGTGCTAG`: “fitted relative affinity” 7.5 z-score.
For `GACGATTTAGGGTATCGAGACGTGCTA`, “fitted relative affinity” read 0.216 z-score.
`TCATTTTAAAGTTTCAGACTGTGCTAG`: “fitted relative affinity” 0.574 z-score.
For `GACGGACCGGGACTGGGGACGTGCTAG`, “fitted relative affinity” read -0.47 z-score.

Block 5
Target: Sal-like protein 4, full length isoform A (SALL4, Homo sapiens, UniProt Q9UJQ4, residues 1-1053)
UniProt Q9UJQ4, sequence (whole entry, looked up): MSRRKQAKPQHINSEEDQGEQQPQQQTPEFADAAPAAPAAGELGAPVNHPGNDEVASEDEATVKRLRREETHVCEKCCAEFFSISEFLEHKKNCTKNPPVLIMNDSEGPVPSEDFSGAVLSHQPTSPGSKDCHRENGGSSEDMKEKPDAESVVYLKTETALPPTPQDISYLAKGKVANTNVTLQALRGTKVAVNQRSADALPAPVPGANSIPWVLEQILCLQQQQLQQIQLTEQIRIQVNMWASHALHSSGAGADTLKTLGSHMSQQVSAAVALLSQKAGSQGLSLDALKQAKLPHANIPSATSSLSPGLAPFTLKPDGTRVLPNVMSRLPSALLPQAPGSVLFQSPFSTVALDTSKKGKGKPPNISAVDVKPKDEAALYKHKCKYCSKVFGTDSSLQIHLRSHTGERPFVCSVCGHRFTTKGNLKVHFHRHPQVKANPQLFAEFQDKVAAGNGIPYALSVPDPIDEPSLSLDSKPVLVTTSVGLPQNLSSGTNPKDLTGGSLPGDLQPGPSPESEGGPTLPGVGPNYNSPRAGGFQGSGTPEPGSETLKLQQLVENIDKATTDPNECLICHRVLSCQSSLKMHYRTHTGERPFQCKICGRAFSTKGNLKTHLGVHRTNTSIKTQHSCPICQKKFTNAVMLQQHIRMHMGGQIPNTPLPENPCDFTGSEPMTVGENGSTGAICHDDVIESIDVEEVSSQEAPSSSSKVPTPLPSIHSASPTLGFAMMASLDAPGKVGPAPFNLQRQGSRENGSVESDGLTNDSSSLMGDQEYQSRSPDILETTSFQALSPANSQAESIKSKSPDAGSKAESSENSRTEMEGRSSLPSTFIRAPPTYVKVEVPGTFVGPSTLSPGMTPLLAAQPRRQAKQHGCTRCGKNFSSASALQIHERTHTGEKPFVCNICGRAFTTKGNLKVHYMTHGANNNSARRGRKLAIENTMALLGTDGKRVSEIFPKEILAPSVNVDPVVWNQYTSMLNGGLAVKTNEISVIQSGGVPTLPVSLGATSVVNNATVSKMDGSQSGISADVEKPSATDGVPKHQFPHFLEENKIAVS
Method: universal PBM
Molecule type: double-stranded DNA, one strand shown
Medium: in vitro
Concentration: 600 nM
Setting: 8-mer, flanks averaged, mean of replicates
Direction: higher = stronger binding
`CTAATTTC` gave an E-score of 0.136.
`AGCCGAGA` gave an E-score of -0.246.
The E-score of `AATTTCCC` is reported as 0.136.
For `ATGCTAGC`, the E-score was 0.0595.
With `ATCTTAAC` the E-score was 0.189.
With `AATAGGAC` the E-score was 0.147.
The E-score of `AACCAGGC` is reported as -0.236.
`GGCGCTTA` gave an E-score of -0.272.
`GATCGCTA` has an E-score of -0.0823.
The E-score of `GTTGGCAA` is reported as 0.0189.
`ATTCTACC` gave an E-score of 0.235.
The E-score of `ACCCTCCT` is reported as -0.263.
With `AAATACTA` the E-score was 0.304.
For `ATAGCTAG`, the E-score was 0.0656.
The E-score of `ACGGCATG` is reported as -0.203.
`AATTCTCA` gave an E-score of 0.25.
The E-score of `CGCACTAG` is reported as -0.255.
`ATCCAGTC` has an E-score of -0.0525.
The E-score of `AGTAGTAT` is reported as 0.238.
For `ACTGGGAA`, the E-score was -0.0854.
`GAGAGGCA` gave an E-score of -0.314.
`GAGTGTGA` gave an E-score of 0.105.
For `GCAGCGGA`, the E-score was -0.186.
`ATTAGGAA` has an E-score of 0.206.
The E-score of `ATAATCGG` is reported as 0.183.

Block 6
Target: CCNA2, cyclin fold, Cln2 fusion (human)
Method: yeast growth competition, sequencing
Medium: yeast
Setting: strong parent motif
Reference: not given
Direction: higher = stronger binding
Parent: INSM1 docking peptide (human); PKAIRKLHFEDEV; partner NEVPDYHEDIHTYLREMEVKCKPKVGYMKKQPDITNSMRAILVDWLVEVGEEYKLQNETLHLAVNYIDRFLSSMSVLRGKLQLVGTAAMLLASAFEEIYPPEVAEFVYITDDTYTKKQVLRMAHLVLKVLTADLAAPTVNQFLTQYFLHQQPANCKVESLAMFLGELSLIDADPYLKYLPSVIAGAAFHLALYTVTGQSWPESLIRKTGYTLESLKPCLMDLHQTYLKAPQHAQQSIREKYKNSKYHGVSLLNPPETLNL
`A3I` — result for “normalised enrichment score”: 3.64.
`H8W` — result for “normalised enrichment score”: 4.99.
`A3G`: “normalised enrichment score” 2.73.
Under “normalised enrichment score”, `E10F` is recorded as 5.17.
For `K2A`, “normalised enrichment score” read 4.26.
`D11H` — result for “normalised enrichment score”: 4.86.
Under “normalised enrichment score”, `K2I` is recorded as 3.5.
`L7D` — result for “normalised enrichment score”: -0.45.
`E12W`: “normalised enrichment score” 4.48.
Under “normalised enrichment score”, `E12P` is recorded as 5.15.
`K2V` — result for “normalised enrichment score”: 3.83.
`E12C`: “normalised enrichment score” 5.38.
`K2G` — result for “normalised enrichment score”: 4.99.
For `L7H`, “normalised enrichment score” read -0.141.
`F9T` — result for “normalised enrichment score”: 0.00509.

Some of these lines once more (block 5):
With `AATAGGAC` the E-score was 0.147.
The E-score of `AACCAGGC` is reported as -0.236.
`GGCGCTTA` gave an E-score of -0.272.
`GATCGCTA` has an E-score of -0.0823.
The E-score of `GTTGGCAA` is reported as 0.0189.
`ATTCTACC` gave an E-score of 0.235.
The E-score of `ACCCTCCT` is reported as -0.263.
With `AAATACTA` the E-score was 0.304.
For `ATAGCTAG`, the E-score was 0.0656.
The E-score of `ACGGCATG` is reported as -0.203.
`AATTCTCA` gave an E-score of 0.25.
The E-score of `CGCACTAG` is reported as -0.255.
`ATCCAGTC` has an E-score of -0.0525.
The E-score of `AGTAGTAT` is reported as 0.238.
